Measured values from different studies.
Protocols differ between the studies behind these lines.
Cell line: THP-1

`CC(C)(C)c1ccc(S(=O)(=O)/C=C/C#N)cc1` has an IC50 of 0.293 µM (TNF-α release, inhibitor, ELISA; 17 h, LPS-stimulated).
`COc1c(OC)c(O)c2c(=O)cc(-c3ccc(O)cc3)oc2c1OC` has an EC50 of 4.59 µM (antioxidant effect, OPT fluorometric glutathione, measured: redox index GSH/total glutathione; cell extract).
With `O=c1cc(-c2ccc(O)cc2)oc2cc(O)cc(O)c12` the IC50 was 180 µM (cell growth or viability, ATP luminescence; 24 h).
`COc1ccc(-c2cc(=O)c3cc(OC)ccc3o2)c(OC)c1` — result for “Emax of redox index”: 0.74 (antioxidant effect, OPT fluorometric glutathione, measured: GSH/(GSH + GSSG); cell extract; reference: 1 = all glutathione reduced, higher = more antioxidant).
For `Cc1cccc2oc3c(CC(=O)O)cccc3c(=O)c12`, IRF3 activation read “inactive” (IRF3 luciferase reporter; up to 1 mM, 4 h, with: c-di-GMP).
`O=C(Nc1nc2ccccc2n1CCN1CCOCC1)c1cccc([N+](=O)[O-])c1` gave an IC50 of 2.76 µM (TNF-α production, HTRF; 17 h, with: 1 µg/mL LPS).
`O=c1c(O)c(-c2ccc(O)c(O)c2)oc2cc(O)cc(O)c12` has an IC50 of 37 µM (cell growth or viability, ATP luminescence; 24 h).
`CCCC1(C)C(C#N)(C#N)C1(C#N)C#N` has an IC50 of 2.32 µM (TNF-α production, HTRF; 17 h, with: 1 µg/mL LPS).
The IC50 of `O=C1c2cccc(O)c2C(=O)c2c(O)cc(CO)cc21` is reported as 450 µM (cell growth or viability, ATP luminescence; 24 h).
For `C[C@]12CCC(=O)C=C1C=C[C@@H]1[C@@H]2CC[C@@]2(C)[C@H]1CC[C@@]21CCC(=O)O1`, the EC50 was over 100 µM (antioxidant effect, OPT fluorometric glutathione, measured: redox index GSH/total glutathione; cell extract).
The IC50 of `C(=C\c1ccccc1)/c1ccccc1` is reported as 380 µM (cell growth or viability, ATP luminescence; 24 h).
`O=C(O)c1cc(/N=N/c2ccc(S(=O)(=O)Nc3ccccn3)cc2)ccc1O`: “reporter gene activation” “inhibited” (inhibitor, tdTomato flow cytometry; high, with: 2'3'-cGAMP or RR CDA).

Repeated from above:
With `O=c1cc(-c2ccc(O)cc2)oc2cc(O)cc(O)c12` the IC50 was 180 µM (cell growth or viability, ATP luminescence; 24 h).
